Literature values that unrelated publications cite.
Lines come from different studies, so protocols differ. ± gives the spread as reported.
B1: cyanovirin-N; sequence looked up; chain LGKFSQTCYNSAIQGSVLTSTCERTNGGYNTSSIDLNSVIENVDGSLKWQPSNFIETCRNTQLAGSSELAAECKTRAQQFVSTKINLDDHIANIDGTLKYE

Substance | tested on | assay | test system | conditions | how to read | endpoint | result
CCN(CC)CCCC(C)Nc1ccnc2cc(Cl)ccc12 (centres unmarked) | SARS-CoV-2 | cytopathic effect | Vero E6 cells | 72 h |  | EC50 | 5.8 µM
CC(C)c1cc2c(c(O)c1O)[C@@]1(C(=O)O)CCCC(C)(C)[C@@H]1CC2 | paraoxonase 1, human | inhibitor |  |  |  | Ki | 94 ± 30 µM
Cc1ccc(C(=O)Nc2ccc(S(=O)(=O)O)c3cc(S(=O)(=O)O)cc(S(=O)(=O)O)c23)cc1NC(=O)c1cccc(NC(=O)Nc2cccc(C(=O)Nc3cc(C(=O)Nc4ccc(S(=O)(=O)O)c5cc(S(=O)(=O)O)cc(S(=O)(=O)O)c45)ccc3C)c2)c1 | SARS-CoV-2 | viral cytopathic effect | Vero E6 | 20 µM |  | inhibition | -0.02%
CCCNC(=O)[C@H]1O[C@@H]1C(=O)N[C@H](C(=O)N1CCC[C@H]1C(=O)O)[C@@H](C)CC | Ebola virus | viral replication |  | concentration not given |  | infectious progeny yield | decreased
O=C(Nc1ccc([N+](=O)[O-])cc1Cl)c1cc(Cl)ccc1O | SARS-CoV-2 | cytopathic effect | Vero E6 cells | 72 h |  | EC50 | 0.23 µM
B1 (cyanovirin-N) | Ebola virus | viral replication |  |  |  | EC50 | 0.1 µM
Nc1ncnc2c1ncn2[C@@H]1O[C@H](COP(=O)(O)OP(=O)(O)OP(=O)(O)O)[C@@H](O)[C@H]1O | Replicase polyprotein 1ab, nsp12 with nsp7/nsp8 (rep, Severe acute respiratory syndrome coronavirus 2, UniProt P0DTD1) | substrate |  | templating base U |  | Km | 320 ± 50 µM
COc1cc2c(c3oc(=O)c4c(c13)CCC4=O)[C@@H]1C=CO[C@@H]1O2 |  |  | rhesus monkey, urine | 24 h | baseline: dose | urinary excretion, chloroform-extractable | ~10%

For quick reference, copied from above:
Substance | tested on | assay | test system | conditions | how to read | endpoint | result
CCN(CC)CCCC(C)Nc1ccnc2cc(Cl)ccc12 (centres unmarked) | SARS-CoV-2 | cytopathic effect | Vero E6 cells | 72 h |  | EC50 | 5.8 µM
